Measurements gathered from unrelated publications.
Lines come from different studies, so protocols differ. Numbers after ± are the reported error.

The EC50 of `C[C@@H]1O[C@@H](O[C@H]2[C@H](O[C@H]3CC[C@@]4(C)C(CC[C@]5(C)C4CC=C4C6CC(C)(C)CC[C@]6(C(=O)O)CC[C@]45C)C3(C)C)OC[C@H](O[C@@H]3O[C@H](CO)[C@@H](O)[C@H](O)[C@H]3O)[C@@H]2O)[C@H](O)[C@H](O)[C@H]1O` (stereo partly shown) is reported as 10.8 ± 4.2 µM (PPARs; reporter gene, agonist; HepG2 transfected PPRE-luciferase and PPAR; 20 h).
`CC(=O)N[C@@H](Cc1ccc(O)cc1)CN(CC(=O)N[C@@H](CCCCN)CN(CC(=O)N[C@@H](Cc1ccccc1)CN(CC(=O)N[C@H]1CCCCNc2c(F)c(F)c(c(F)c2F)S(=O)(=O)c2c(F)c(F)c(c(F)c2F)NCCCC[C@@H](CN(CC(=O)N[C@@H](C)CN(CC(N)=O)S(C)(=O)=O)S(C)(=O)=O)NC(=O)CN(S(=O)(=O)CC(C)C)C[C@H](Cc2ccccc2)NC(=O)CN(S(=O)(=O)CCN)C1)S(=O)(=O)CC(C)C)S(=O)(=O)CCN)S(C)(=O)=O` gave an IC50 of 18.2 ± 2.57 µM (CREB; reporter gene, inhibitor, CRE Renilla luciferase; HEK-293T; 30 min, together with: forskolin 10 µM for 5 h).
The delta Tm of `C[n+]1ccc(/C=N/NC(=O)c2cccc(C(=O)N/N=C/c3cc[n+](C)c4ccccc34)n2)c2ccccc21` is reported as 37 °C (G-quadruplex DNA 22CTA antiparallel; UV melting; 6 µM, K10 buffer, together with: DNA 3 µM).
The IC50 of `CC(=O)N[C@@H](Cc1ccc(O)cc1)CN(CC(=O)N[C@@H](CCCCN)CN(CC(=O)N[C@@H](Cc1ccccc1)CN(CC(=O)N[C@H]1CCCCNc2c(F)c(F)c(c(F)c2F)S(=O)(=O)c2c(F)c(F)c(c(F)c2F)NCCCC[C@@H](CN(CC(=O)N[C@@H](C)CN(CC(N)=O)S(C)(=O)=O)S(C)(=O)=O)NC(=O)CN(S(=O)(=O)c2ccc(Cl)cc2)C[C@H](CC(C)C)NC(=O)CN(S(=O)(=O)CCN)C1)S(=O)(=O)CC(C)C)S(=O)(=O)CCN)S(C)(=O)=O` is reported as 72.3 ± 44.8 µM (CREB; reporter gene, inhibitor, CRE Renilla luciferase; HEK-293T; 30 min, together with: forskolin 10 µM for 5 h).
`CC[C@H](C)[C@@H]1NC(=O)[C@H](CCCNC(=N)N)NC(=O)[C@H](C)NC(=O)CNC(=O)[C@H](CCCCN)NC(=O)[C@H](CCCNC(=N)N)NC(=O)[C@H](C(C)C)NC(=O)[C@H](C)NC(=O)[C@@H]2CSSC[C@@H]3NC(=O)[C@H](CO)NC(=O)[C@H]([C@@H](C)O)NC(=O)CNC(=O)[C@H](CCCNC(=N)N)NC(=O)[C@@H]4CCCN4C(=O)[C@H](CSSC[C@@H](C(=O)N[C@@H](CC(C)C)C(=O)O)NC(=O)[C@H](CCCCN)NC(=O)[C@H](CC(C)C)NC(=O)[C@H](CC(C)C)NC(=O)[C@H](Cc4ccccc4)NC(=O)[C@H](CO)NC(=O)[C@H](CC(N)=O)NC3=O)NC(=O)[C@H](CC(=O)O)NC(=O)[C@H](CSSC[C@H](NC(=O)[C@H](CCSC)NC(=O)[C@@H]3CCCN3C(=O)[C@@H](NC(=O)[C@H](CCC(N)=O)NC(=O)CNC(=O)[C@H](Cc3ccc(O)c(I)c3)NC(=O)[C@@H](N)CCCCN)C(C)C)C(=O)N[C@@H](CC(=O)O)C(=O)N[C@@H](C)C(=O)NCC(=O)N[C@@H](CCC(=O)O)C(=O)N[C@@H](CCC(N)=O)C(=O)N2)NC(=O)[C@H](CC(C)C)NC(=O)[C@H](CCCCN)NC(=O)CNC1=O` [iodine-125 labelled] — result for “specific binding increase”: roughly 4 fold (CART peptide binding site (rat); PC-12 differentiated 3 days; concentration not given; baseline: undifferentiated cells).
`C[C@@H](N)C1CCN(S(=O)(=O)c2cccc3c(=O)[nH]ccc23)CC1` has an inhibition of 61% (ROCK; MLC2 phosphorylation, inhibitor; HUVEC; 50 µM, 1 h, together with: LPA; baseline: LPA alone).
`CC(=O)N[C@@H](Cc1ccc(O)cc1)CN(CC(=O)N[C@@H](CCCCN)CN(CC(=O)N[C@@H](CC(C)C)CN(CC(=O)N[C@H]1CCCCNc2c(F)c(F)c(c(F)c2F)S(=O)(=O)c2c(F)c(F)c(c(F)c2F)NCCCC[C@@H](CN(CC(=O)N[C@@H](C)CN(CC(N)=O)S(C)(=O)=O)S(C)(=O)=O)NC(=O)CN(S(=O)(=O)CC(C)C)C[C@H](CC(C)C)NC(=O)CN(S(=O)(=O)CCN)C1)S(=O)(=O)CC(C)C)S(=O)(=O)CCN)S(C)(=O)=O` gave an IC50 of greater than 100 µM (CREB; reporter gene, inhibitor, CRE Renilla luciferase; HEK-293T; 30 min, together with: forskolin 10 µM for 5 h).
With `O=S(=O)([O-])CCCSCCN(CCSCCCS(=O)(=O)[O-])CCSCCCS(=O)(=O)[O-].[Na+].[Na+].[Na+]` the pCu was 16.9 (Cu(I); competition titration; 10 µM, pH 7.0, ionic strength 0.1, together with: Cu(I) 1 µM; higher = stronger binding).
For `CCCCC[N+](CCCCC)(CCCCC)CCCCC`, “fold decrease of inhibition” read greater than 10 fold (Kir1.1 (rat); ion current, blocker, inside-out patch clamp; Xenopus oocytes; concentration not given, +40 mV, together with: extracellular K+ 4 to 120 mM).
For `CC(=O)N[C@@H](Cc1ccc(O)cc1)CN(CC(=O)N[C@@H](CCCCN)CN(CC(=O)N[C@@H](Cc1ccccc1)CN(CC(=O)N[C@H]1CCCCNc2c(F)c(F)c(c(F)c2F)S(=O)(=O)c2c(F)c(F)c(c(F)c2F)NCCCC[C@@H](CN(CC(=O)N[C@@H](C)CN(CC(N)=O)S(=O)(=O)CC(C)C)S(C)(=O)=O)NC(=O)CN(S(=O)(=O)CC(C)C)C[C@H](CC(C)C)NC(=O)CN(S(=O)(=O)CCN)C1)S(=O)(=O)CC(C)C)S(=O)(=O)CCN)S(C)(=O)=O`, the IC50 was 37.4 ± 14.8 µM (CREB; reporter gene, inhibitor, CRE Renilla luciferase; HEK-293T; 30 min, together with: forskolin 10 µM for 5 h).
For `C[n+]1c(/C=C/c2ccc(N(c3ccccc3)c3ccccc3)cc2)cc(/C=C2\Sc3ccccc3N2CCCN2CCCC2)c2ccccc21`, the ΔTm was 7.4 °C (Pu27 G-quadruplex DNA; CD melting; 5 µM, 60 mM KCl, together with: 5 µM G4-DNA).
`COc1ccc2c(c1)c1c(C)c3cnccc3c(C)c1n2CCCN1CCN(C)CC1` has a ΔTm of 9 °C (PDGFR-β NHE 41-mer G-quadruplex DNA; CD thermal melt; baseline: no compound).
With `CCCCCCCCCCCC1N=C(N)N=C(N)N1c1ccc(Cl)cc1` (racemic) the EC50 was 16 µM (membrane disruption; SYTOX Green uptake; Escherichia coli, ATCC 25922).
`COc1ccc(-c2cc(C(=O)Nc3cccc(Cl)c3C)no2)cc1O` has an EC50 of 2.83e-05 ± 4.8e-06 µM (mitochondrial permeability transition pore, mouse; mitochondrial swelling inhibition; isolated mouse liver mitochondria; together with: Ca2+).
`C=C(F)C(=O)Nc1cnn2ccc(-c3ccc(C4CCCCC4)cc3)nc12` has an inhibition of 96% (YAP-TEAD4; reporter gene; HEK-293T Gal4-TEAD4 UAS-luciferase; 20 µM, 24 h).
`CC1OC(Oc2c(-c3ccc(O)cc3)oc3cc(O)cc(O)c3c2=O)C(OC(=O)C=Cc2ccc(O)cc2)C(O)C1OC(=O)C=Cc1ccc(O)cc1` (stereo not shown) gave an inhibition of 92.8% (CCR2; macrophage infiltration; mouse, thioglycollate peritonitis, peritoneum; intraperitoneal, 150 mg/kg).
`O=C(CCl)Sc1nnc(-c2n[nH]c(=O)c3ccccc23)o1` — result for “protein level reduction”: 82% (p38 MAPK; ELISA; HepG2; IC50, 8 h; baseline: untreated).
With `Cc1ncc(Cl)cc1NC(=O)c1cc(-c2ccc(F)c(O)c2)on1` the EC50 was 0.0155 ± 0.0018 µM (mitochondrial permeability transition pore, mouse; mitochondrial swelling inhibition; isolated mouse liver mitochondria; together with: Ca2+).
`Cc1sc2ncn(CC(=O)N3CCCC3)c(=O)c2c1-c1cccc(Br)c1` — result for “calcium fluorescence increase”: 1.75 fold (NMDA receptor mouse; patch clamp with Ca2+ imaging; cultured cortical neurons; 50 µM; baseline: vehicle).

Repeated from above:
With `CCCCCCCCCCCC1N=C(N)N=C(N)N1c1ccc(Cl)cc1` (racemic) the EC50 was 16 µM (membrane disruption; SYTOX Green uptake; Escherichia coli, ATCC 25922).
